Measurements pooled from the literature.
Each numbered part is a random draw from the data of one study; scales do not carry over between parts. ± gives the spread as reported.
UniProt Q8JUX6, sequence (whole entry, looked up): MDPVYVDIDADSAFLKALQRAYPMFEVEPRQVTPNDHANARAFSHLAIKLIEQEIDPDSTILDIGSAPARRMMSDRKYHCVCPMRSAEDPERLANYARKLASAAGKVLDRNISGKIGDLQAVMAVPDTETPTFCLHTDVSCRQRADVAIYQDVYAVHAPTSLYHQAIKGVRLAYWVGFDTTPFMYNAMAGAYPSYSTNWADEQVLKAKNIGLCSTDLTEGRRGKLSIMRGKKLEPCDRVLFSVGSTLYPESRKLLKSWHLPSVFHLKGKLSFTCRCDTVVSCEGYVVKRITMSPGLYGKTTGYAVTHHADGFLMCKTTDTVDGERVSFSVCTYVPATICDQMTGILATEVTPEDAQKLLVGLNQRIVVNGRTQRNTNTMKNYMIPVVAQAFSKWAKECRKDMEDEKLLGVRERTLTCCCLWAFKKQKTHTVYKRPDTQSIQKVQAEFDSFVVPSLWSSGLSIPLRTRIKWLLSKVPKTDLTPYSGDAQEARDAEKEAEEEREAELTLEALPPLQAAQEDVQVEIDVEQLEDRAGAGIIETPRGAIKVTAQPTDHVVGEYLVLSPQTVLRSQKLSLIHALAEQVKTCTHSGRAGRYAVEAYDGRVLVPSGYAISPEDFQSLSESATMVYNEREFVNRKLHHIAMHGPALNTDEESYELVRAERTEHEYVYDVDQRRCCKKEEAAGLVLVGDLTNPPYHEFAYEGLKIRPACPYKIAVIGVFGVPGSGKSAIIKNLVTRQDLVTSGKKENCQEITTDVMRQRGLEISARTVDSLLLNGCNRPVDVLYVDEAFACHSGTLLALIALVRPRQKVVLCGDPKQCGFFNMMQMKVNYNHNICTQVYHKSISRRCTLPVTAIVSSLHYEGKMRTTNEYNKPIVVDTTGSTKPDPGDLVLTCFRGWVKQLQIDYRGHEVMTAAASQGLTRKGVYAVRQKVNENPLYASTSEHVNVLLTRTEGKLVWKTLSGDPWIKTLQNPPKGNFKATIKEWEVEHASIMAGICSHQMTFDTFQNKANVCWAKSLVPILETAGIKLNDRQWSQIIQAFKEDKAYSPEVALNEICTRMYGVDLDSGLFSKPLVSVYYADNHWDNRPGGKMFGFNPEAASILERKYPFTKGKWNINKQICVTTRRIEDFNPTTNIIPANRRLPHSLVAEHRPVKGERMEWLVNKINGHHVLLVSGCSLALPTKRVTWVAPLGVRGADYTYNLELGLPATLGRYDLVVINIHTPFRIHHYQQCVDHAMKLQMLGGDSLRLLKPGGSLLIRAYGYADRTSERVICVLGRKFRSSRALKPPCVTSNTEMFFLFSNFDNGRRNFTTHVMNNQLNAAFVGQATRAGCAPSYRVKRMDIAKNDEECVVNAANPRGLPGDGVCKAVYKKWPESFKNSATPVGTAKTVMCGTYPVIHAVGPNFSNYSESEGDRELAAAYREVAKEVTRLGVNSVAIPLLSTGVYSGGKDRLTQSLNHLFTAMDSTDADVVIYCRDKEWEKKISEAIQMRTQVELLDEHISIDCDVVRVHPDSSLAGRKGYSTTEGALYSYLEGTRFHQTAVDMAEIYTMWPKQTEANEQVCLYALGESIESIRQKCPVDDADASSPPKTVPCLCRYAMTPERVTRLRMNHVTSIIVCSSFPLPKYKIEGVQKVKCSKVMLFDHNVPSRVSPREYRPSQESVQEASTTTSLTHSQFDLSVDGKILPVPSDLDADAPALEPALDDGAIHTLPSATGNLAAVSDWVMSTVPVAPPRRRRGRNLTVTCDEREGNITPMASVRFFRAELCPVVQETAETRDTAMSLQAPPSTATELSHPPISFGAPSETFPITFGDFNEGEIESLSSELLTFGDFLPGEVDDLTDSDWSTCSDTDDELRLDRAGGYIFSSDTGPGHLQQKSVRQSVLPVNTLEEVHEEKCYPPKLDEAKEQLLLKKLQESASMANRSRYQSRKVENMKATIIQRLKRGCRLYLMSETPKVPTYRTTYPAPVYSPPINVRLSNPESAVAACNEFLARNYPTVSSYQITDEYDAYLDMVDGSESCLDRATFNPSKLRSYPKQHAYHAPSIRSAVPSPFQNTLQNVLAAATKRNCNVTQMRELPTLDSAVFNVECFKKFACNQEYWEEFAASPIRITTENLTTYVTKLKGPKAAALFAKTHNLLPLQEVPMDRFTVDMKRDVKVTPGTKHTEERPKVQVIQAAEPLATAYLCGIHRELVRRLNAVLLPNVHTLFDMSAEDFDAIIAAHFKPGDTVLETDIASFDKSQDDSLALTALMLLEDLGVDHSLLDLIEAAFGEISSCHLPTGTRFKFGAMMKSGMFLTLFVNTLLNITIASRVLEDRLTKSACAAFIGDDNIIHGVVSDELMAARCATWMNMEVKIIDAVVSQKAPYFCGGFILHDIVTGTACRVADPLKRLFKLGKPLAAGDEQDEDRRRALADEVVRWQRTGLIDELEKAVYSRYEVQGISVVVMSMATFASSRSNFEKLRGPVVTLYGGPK

Sample 1 — organism: MERS-CoV spike VSV pseudovirus; effect on: pseudovirus entry; concentration: 10 µM
For `Oc1ccc2ccccc2c1N=Nc1ccccn1`, the inhibition was 61%.
The inhibition of `Cc1cccc(NC(=O)CS(=O)(=O)c2nc(-c3ccccc3)cn2-c2ccc(Cl)cc2)c1C` is reported as 26%.
For `Oc1ccc(CN2CCN(Cc3ccc(Br)s3)CC2)c2cccnc12`, the inhibition was 53%.
`O=C(c1ccc(-c2ccnc3[nH]ccc23)o1)N1CCCCC1` gave an inhibition of 39%.
The inhibition of `Cc1ccc(/C(C#N)=C2\C=CC(=NO)C(Cl)=C2)cc1` is reported as 28%.
With `c1ccc(Nc2nccc(-c3ccncc3)n2)cc1` the inhibition was 52%.
With `Cc1cccc(-c2[nH]c(C(C)(C)C)nc2-c2ccc3c(c2)OCO3)n1` the inhibition was 56%.
With `N=C(N)Nc1ccc(C(=O)Oc2ccc3cc(C(=N)N)ccc3c2)cc1` the inhibition was 79%.

Mixed results
With `CC[C@H](C)[C@H]1C(=O)N2CCC[C@H]2C(=O)O[C@H](C(C)(C)C)C[C@@H](C)C[C@H](O)[C@H](C)C2=N[C@@H](CCC(=O)N[C@@H](Cc3ccc(OC)cc3)C(=O)N(C)[C@@H](C)C(=O)N1C)CS2` the IC50 was about 0.0007 µM (RAW264.7; IL-6 release, inhibitor; LPS-stimulated).
For `NC(=O)c1nc(F)c[nH]c1=O`, the EC50 was 47.8 ± 13.6 µM (Lassa virus; HeLa, clade IV Josiah).
The EC50 of `O=c1ccn([C@@H]2O[C@](F)(CO)[C@@H](O)[C@H]2O)c(=O)[nH]1` is reported as 0.78 ± 0.62 µM (Mammarenavirus lassaense; viral replication; Vero C1008, clade IV Josiah).
`NC1=N[C@H](O)[C@H]2[C@H]3O[C@]4(O)O[C@@H]([C@@H](O)[C@@]2(N1)[C@@H]4O)[C@]3(O)CO` — result for “surface GluA1 puncta intensity”: about 1.6 fold (mouse primary hippocampal neurons; concentration not given; reference: untreated).
The Kd of `FC(F)(F)c1cc(C(F)(F)F)c2ccc3nc(-c4nnco4)cn3c2n1` is reported as over 207 µM (Polyprotein P1234, nsP4 (Chikungunya virus, UniProt Q8JUX6); microscale thermophoresis; Chikungunya virus S27; approximate, saturation not reached).
For `CSCC[C@H](NC(=O)[C@H](CC(C)C)NC(=O)[C@H](C)N)C(=O)N[C@@H](CC(C)C)C(=O)N[C@@H](CCCNC(=N)N)C(=O)N[C@@H](CC(C)C)C(=O)N[C@@H](CC(C)C)C(=O)N[C@@H](CCCNC(=N)N)C(=O)N[C@H](C(=O)O)[C@@H](C)O`, “IFN-γ+ CD8+ T cells” read 4.3% (epitope-specific T-cell response, intracellular cytokine staining; PBMC, human; 10 µg/mL, 72 h).
The EC50 of `NC(=O)c1ncn([C@@H]2O[C@H](CO)[C@@H](O)[C@H]2O)n1` is reported as 2.63 ± 0.71 µM (Lassa virus; HeLa, clade IV Josiah).
With `COP(=O)(OC)Oc1ccc([N+](=O)[O-])cc1` the IC50 was 0.007 µM (muscarinic receptors, rat; radioligand displacement; adult cortex membranes; 90 min, 21 °C, together with: 1 nM [3H]oxotremorine-M).

A few entries again (mixed results):
The EC50 of `NC(=O)c1ncn([C@@H]2O[C@H](CO)[C@@H](O)[C@H]2O)n1` is reported as 2.63 ± 0.71 µM (Lassa virus; HeLa, clade IV Josiah).
For `NC(=O)c1nc(F)c[nH]c1=O`, the EC50 was 47.8 ± 13.6 µM (Lassa virus; HeLa, clade IV Josiah).
